# Measurements from different studies.
# Parts stem from different laboratories: compare values within a part only.

# Block 1 — method: protein binding microarray; form: double-stranded DNA, one strand shown; matrix: in vitro; tested at: not given; baseline: not given; reading: higher = stronger binding
# Target: Histone acetyltransferase KAT6A, both winged helices, GST fusion (KAT6A, Homo sapiens, UniProt Q92794, residues 1-181)
# Setting: 8-mer, flanks averaged, mean of 2 arrays, mostly near background
# Construct (chain): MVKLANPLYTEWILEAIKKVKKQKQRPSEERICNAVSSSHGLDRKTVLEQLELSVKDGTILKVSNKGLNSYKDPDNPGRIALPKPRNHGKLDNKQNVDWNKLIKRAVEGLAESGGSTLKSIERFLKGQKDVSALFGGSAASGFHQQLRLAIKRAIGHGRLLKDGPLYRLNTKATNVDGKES
Oligonucleotide,E-score
CCACCCCC,-0.14
CATGGGGG,-0.255
AGGAATAC,-0.0633
AAGTGAGA,-0.0414
TATGAATA,-0.0396
AGCCCCTG,-0.156
CTTAGCAC,0.0323
AGGCTCCA,-0.11
GGCCACCC,-0.0307
ATGGTGGC,-0.0434
GAAAAGCA,-0.0852
AGGCTAAA,0.00385
CCGCGAAA,0.317
GCGATGGA,0.167
GCTACCAA,0.013
AACTTGGT,-0.0496
CATGCCGC,0.323
CTAGTCCA,-0.16
CTGGGATC,-0.185

# Block 2 — method: RNA Bind-n-Seq; form: RNA; matrix: in vitro; tested at: not given; baseline: input RNA pool; reading: higher = stronger binding
# Target: RING finger protein unkempt homolog, zinc fingers 1-6, GST-SBP tag (UNK, Homo sapiens, UniProt Q9C0B0, residues 30-357)
# Setting: RNA with constant flanks, human-mouse chimeric sites, ends assumed
# Shared flanks, not repeated: GGGAGUUCUACAGUCCGACGAUC … CAACAGAGGAUUGAGCAUCA
# Target sequence (chain): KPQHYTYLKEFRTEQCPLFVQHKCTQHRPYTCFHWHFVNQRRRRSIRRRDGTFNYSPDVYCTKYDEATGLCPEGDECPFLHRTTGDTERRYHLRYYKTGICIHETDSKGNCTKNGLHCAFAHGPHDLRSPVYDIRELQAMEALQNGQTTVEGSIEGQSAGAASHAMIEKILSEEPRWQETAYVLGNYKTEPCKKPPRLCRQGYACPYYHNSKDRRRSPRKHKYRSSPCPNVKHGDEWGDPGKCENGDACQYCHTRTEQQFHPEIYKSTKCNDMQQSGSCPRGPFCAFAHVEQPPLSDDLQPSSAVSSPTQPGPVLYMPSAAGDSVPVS
Oligonucleotide,bound/input enrichment
UUACCCGAGAACGAGGAUGAGCUGGAGAGCACCAACAGACGCUAUACCAAGAGGGACUGCAGCACUUUCCUCAGAACUAGUGAGACGGGCAUCGUGGAUCAGGUUAUGGUCACUCUCAAC,0.26 ratio
CGGAAGUUCUUGAUUUAUCAUUUUUCUCUUUUCUUUCUUUCCUUUAGGAAAAGCCUAAAGAUUAGGUUGUAAGAAAAACAGAAGCCAGCCAUGUUUCACCUGUGUUACAGGUAUUUCGUC,0.281 ratio
AAAGAGAAUGGAGAUGUAAAGAUUUUACUGAAAAGUGGGAAGGAGAAACCAAAAACAAAUAUAGAAGACUUACAAAUUAAAAAGGUAAAGAAGAAAAAGAAAAAGAAACACAAAGAGAAU,16.9 ratio
CAGCCUCAGAGCCCAGACUUCCUGGAUAUUACCAACCCUAAAGCGGUAUUAGAAAAUGCACUUAGGAACUUCGCCUGUCUGACGACUGGAGAUGUGAUUGCCAUCAACUACAAUGAGAAG,0.686 ratio
UCAAGGGGGCACUGCAGAGCCAUGCCUUUCCUUGACAUACAGAAAAAGCUGGGCAUCAACAUAGAUCGGCACUUUAUGUUCCUAAGCGCAGAACAGCCCUAUAAGAACGCCGCUCGGUGC,0.0827 ratio
UGGCGCCUGCGCUCCCCACUCGUGUUUUUAAGUGUAUUUUUAUAAGAUACAUGUAUUUACAAUUGAGUUUUUGAUUAAUAAUGCUGAAAACAUCUCUGAGAUUAUGAAAAAUGUUUCAAU,0.0986 ratio
GAAUCCUACUCAGGCGGAUUUUGCAACACCAAGCUCACAGCAGCAGCAUCUUAGUCACAGUUAGGUAGCUUUAGGGCUCUGUGGCCAGGGUUUUAUUCACAUGCAGGUUUGGAAAAUGUA,1.44 ratio
UUUCUACUGCAGCAAACCAUGCUACGAAUUAAGGAUCCUAAGAAGUCCCUGGAUUUUUAUACGAGGGUUCUUGGACUGACCCUCCUGCAGAAGCUUGACUUCCCUGCUAUGAAGUUCUCG,0.276 ratio
GAAUCCUCCCGUGCAAAAUUUUGCAACACCAAGCUCACAGCAGCAGCAUCUUAGUCACAGUAGGGUAGUUUUGGGGCUCUGUGGCCAGGGUUUUAUUCAUGUGCAGGUUUGGAAAAUGUA,2.43 ratio
UACUCAACUUUCUUGCCACAUUUUGAAUUCCAAGACAUUAUCCCUCCAGAUGACUUCCUAACGAGUGAUGAAGAGCAAGAUUUGGUUUUAUUUGGAAGUUUGAGAGGACAAGUUGUUGGA,0.222 ratio
UUUGUAUUUAUGCUAAGCACACGUGCUGGUGGUCUGGGCAUCAAUCUUGCAACUGCUGAUGUAGUAAUUUUAUAUGACUCAGAUUGGAAUCCGCAAGUAGAUCUUCAGGCUAUGGACCGU,0.291 ratio

# Block 3 — method: competition protein-binding microarray; form: double-stranded DNA, one strand shown; matrix: in vitro; tested at: 2 µM; with: Cbf1 competitor, 0.05 µM; reading: higher = stronger binding; shared flanks, not repeated: … GTCTTGATTCGCTTGACGCTGCTG
# Target: Phosphate system positive regulatory protein PHO4, full length, GST-tagged (PHO4, Saccharomyces cerevisiae, UniProt P07270, residues 1-312)
# Setting: whole 60-bp probe, lowest competitor level
# Target sequence (chain): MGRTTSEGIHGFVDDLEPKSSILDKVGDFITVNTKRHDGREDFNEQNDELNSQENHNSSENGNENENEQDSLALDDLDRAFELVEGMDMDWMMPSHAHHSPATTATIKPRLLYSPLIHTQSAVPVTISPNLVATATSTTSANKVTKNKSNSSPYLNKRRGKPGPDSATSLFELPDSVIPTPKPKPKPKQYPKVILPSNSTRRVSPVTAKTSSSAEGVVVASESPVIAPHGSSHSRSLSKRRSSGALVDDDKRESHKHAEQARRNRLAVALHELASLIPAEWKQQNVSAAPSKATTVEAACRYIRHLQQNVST
Oligonucleotide,fluorescence intensity [a.u.]
TTGACGAAACTATGCTGTGTGTGGCCAGGCGAACAA,4260
TTTTTCATCGACCGTCACGTGACGGGCTGAGGTTAA,12300
CTTTCCCGATCTTGCGCAGTGGGTGTAGCACATTTG,4590
GTCTTGTCTCATTGGCTGGTGGGTGTCCCCACTTCA,4700
CCAGATGCTGATTTGCACGTGTTGGGATCATATTCT,19600
CTAACGAAGGTTTGTATGGTGGGTGACAAGCCAAGT,4290
CGACGTTATCGTTACCACCTGAGGCAAGTTTGTTGT,3630
AAATTACTAAGTTGTGCAGTGGGTGACGCCGTATGA,4680
ATAGTTCGTGTACAGGCCGTGATGGTCATCTAATTT,5400
TGCGCAACAACTTGCTTTGTGGGTGTATGTCTAGAA,4520
CTTCTGTAAATTTGGGAAGTGGGTGGACGCGCCCCG,4430
CGGGGTTAAGTTTGCCAGGTGGGTGGCTTGCAGCAG,5870
CATACCCAACCTTGCACGGTGGGTGAAGATATTTGT,8210
TTTTGAATCCCGTTACACGTGGAATCTTTTTGAATT,13200
CACTGAGTACTTCCTCACCTGATCCAATCGATTGAC,3590
AAGCCGCCAGGCGTTCTCGTGCGATAAAGTTGCAAA,7520
TCAGAATGCAAGAAACACGTGAAAAGGTGGAACTTT,14100
TGCGCAACAACTTGAATTGTGGGTGTATGTCTAGAA,4870
CTTCTGAAAGTTTAACACGTGCCGTATCTACGGCTG,14800
ATATAAATGGAAAAGCTGCATAACCACTTTAACTAA,3770
GAGACAGGCACTCACCACGTGAGGAAGAATTAGAGC,16500
CGTCCTAGTGATTGTCACCGCACTTCCATGAGGAAG,4230
TTGGACAAGCTGGCACACCTGATCGACGAGACACCG,4710
CGGGGTTAAGTTTTTCACGTGACGTGCGATCAGCAG,10800
GCTGCCAAGAAAAAGCACGTGTAACAATGGAATGAT,18100

# Block 4 — method: RNA Bind-n-Seq; form: RNA; matrix: in vitro; tested at: 365 nM; baseline: no-protein control; reading: higher = stronger binding
# Target: RNA binding protein fox-1 homolog 2, RRM domain, GST-SBP tag (RBFOX2, Homo sapiens, UniProt O43251-10, residues 100-194)
# Setting: natural RNA segment, single round, ends assumed
# Shared flanks, not repeated: GGGAGUUCUACAGUCCGACGAUC … UGGAAUUCUCGGGUGCCAA
# Construct (chain): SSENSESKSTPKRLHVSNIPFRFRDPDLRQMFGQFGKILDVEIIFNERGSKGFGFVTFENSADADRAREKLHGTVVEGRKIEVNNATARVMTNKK
Oligonucleotide,RBNS enrichment (R)
UUUUUAUUUUUGAAGUACUCUGACACCUCCACCCUCUACUUUAUUAGAAUUGGAAGGCAAAUUUUUGUCCAAAAACCUACAGACAAGUACUUUGAGAGAAUUUCCAAUAU,0.514
GCCAAGUUCUACACCUUGUUUGGUCGGAGUUAUGAUGGACAAAACAGAAGCCACUCUCUCUCUCGCUCAUCUUUUUUUAAAACCACUGAUACGAAGAUCUUCUCAGAUGC,1.36
ACCAUAGUGCUCAGCAACCACAACCCUGUCUUUCCAACACGGCCCUAGCGUAAGCACUGAGGCAGUGUGCAGUGCUCAGGCAGCAGCAAACAUUUCCCGGGGGUGGUUUU,0.32
UGUUCAUUAGAGCAAAUUCAGGGGAAUUUUUGUUCUUUUUUUUUUUAUUUGGGGGCACUAAGUUUAGAUGAGAUGAAUUGCCUCAUAGGAAAUGGAAUUGGUCAGGAUAG,1.05
GUGUCCAGAAUACUUGCAGUAUAAAUGAAGAUUUGGUUUUUGUAUAAAAAAAUAAUGCUGUUAAACAGGAGUUGACCUUCAUUUAGUUGAUGUAAUACAUAGCUGUAUGG,0.602
CAGUUACAUAGGUAGCAAGGGUUUAUUUUUACUUGGGCAAAUUUCAGUGAUAGGCAUUGAGAUCAUGCAUUCGACCAUUUGUCCUGUUCUAAUUAUGAAGAGCGUACCAG,0.419
AAGGUAGCUGUCUGUUGCUAGGCAGCCGUUUGCACAAAUCUUGGACAUAAAUCCAACUUGAAGAUCACAUUUUGUGACUGGCUAAUUCUUUUAUGCCCUCGUGGCCAUGG,0.273
UAGUAAGUCUUUUAGGAUGAUUUUAAUUUAGUCGUGCGUCAUUUUCUGAUUCUCAUCAUUGGGAGAUCUUAAAUCUUAGCAAGCAUUAGCAAUAUUAAAUGCCAAAAUUC,0.506
AGAGCACCUUGUAUAGUAGGUCUGAGUCAAAUAGGACUGAAUUGGUGACAAAGUUUGCACUUACAAAAUCAUGUAAAUAUGUCACAUUUUGUUUUAACAUUUUUUUCAAA,0.404
GACGCAGCACCCGAGGUCCCAGCCUUUGCAGGAGCCUCCCUGGGCUUAGCUGGACUUAGAUCUUCGGUGGCCUCAUGUAAACGUGGCAGCCAGCCUCUUCUAGAACCCUA,0.303
GAGUAAGGGCAAAAUAAUACCCCUUUCUCUAUGUAUCUCUGUAUGCACACGCACUAUAUAUAUAUAUAUAUAUAUAUAUACAUUCAUGUAAUCACCACUUCUCGAUGUCU,0.824
CCCAUGAAAGAAUGUGUUUCAGUAUCAGUGCUUUUUUGGUACUUUAACAAGUAUUGUAGGCACGGUGGAUUUUUUUGAAAUACCCAUGUGUCCAAUAGCAAGUUAAGGAA,0.888

# Single results of other studies
Molecule,target,assay,system,conditions,scale,measurement,result
"PhoQ, residues 284 288 289 292 302 303 SSTLSG","PhoP, residues 12 14 15 18 19 LFHKL (Escherichia coli, UniProt P23836)","Sort-seq, refers to: YFP reporter",E. coli,"PhoQ-PhoP variant library, with: 10 µM Mg2+","baseline: high Mg2+ state, higher = stronger signaling",fold induction,0.839

# Excerpt of the above (block 1):
Oligonucleotide,E-score
CTTAGCAC,0.0323
CCACCCCC,-0.14
AGGAATAC,-0.0633
AACTTGGT,-0.0496
GCTACCAA,0.013
CCGCGAAA,0.317
GGCCACCC,-0.0307
AGGCTCCA,-0.11
